Results pooled from the literature.
Every numbered part comes from another study and shows a few of its results, in no order. Numbers after ± are the reported error. In brackets after ≈: the same amount, converted by molar mass.
UniProt P14416, sequence (whole entry, looked up): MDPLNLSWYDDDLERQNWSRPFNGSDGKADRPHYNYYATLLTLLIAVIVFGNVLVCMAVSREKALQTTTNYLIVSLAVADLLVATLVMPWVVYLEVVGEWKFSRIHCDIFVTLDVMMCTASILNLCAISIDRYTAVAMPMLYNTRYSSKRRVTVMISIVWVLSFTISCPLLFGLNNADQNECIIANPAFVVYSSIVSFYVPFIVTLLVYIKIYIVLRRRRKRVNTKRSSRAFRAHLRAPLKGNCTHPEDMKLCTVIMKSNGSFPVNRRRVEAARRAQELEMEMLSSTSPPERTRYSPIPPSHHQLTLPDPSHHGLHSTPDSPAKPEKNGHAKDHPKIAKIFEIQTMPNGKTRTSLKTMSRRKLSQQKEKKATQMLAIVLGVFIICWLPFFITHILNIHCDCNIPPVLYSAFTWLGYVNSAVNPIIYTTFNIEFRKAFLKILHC

Sample 1
SMILES: CC[C@H](C)[C@H](NC(=O)[C@H](CCCCN)NC(=O)[C@H](CCC(N)=O)NC(=O)[C@H](Cc1ccccc1)NC(=O)[C@@H](NC(=O)[C@H](CCCCN)NC(=O)[C@H](CCCCN)NC(=O)[C@H](CC(C)C)NC(=O)[C@H](C)NC(=O)[C@H](CC(N)=O)NC(=O)[C@@H](N)CC(C)C)C(C)C)C(=O)N[C@@H](Cc1c[nH]cn1)C(N)=O
Time: 18 h
Temperature: 37 °C
| organism | technique | strain | MIC [µM] |
| --- | --- | --- | --- |
| Escherichia coli | – | CCARM 1238, resistant | 4 (≈ 5.75 µg/mL) |
| Escherichia coli | broth microdilution | ATCC 25922 | 4 (≈ 5.75 µg/mL) |
| Staphylococcus aureus | – | USA300, resistant | 8 (≈ 11.5 µg/mL) |
| Listeria monocytogenes | broth microdilution | KCTC 3710 | 16 (≈ 23 µg/mL) |
| Pseudomonas aeruginosa | – | 4007, resistant | 8 (≈ 11.5 µg/mL) |

Sample 2
Cell line: NB-4 APL cells
| Compound | IC50 |
| --- | --- |
| COc1ccc(CC(NC(=O)OCc2ccccc2)C(=O)Nc2ccc(C3CC3N)cc2)cc1 (stereo not shown) | 6.2 ± 0.5 µM |
| NC1CC1c1ccc(NC(=O)C(NC(=O)OCc2ccccc2)c2ccccc2)cc1 (stereo not shown) | 62.2 ± 9.2 µM |
| NC1CC1c1ccc(NC(=O)Cc2ccccc2)cc1 (stereo not shown) | 42.4 ± 6.2 µM |
| NC1CC1c1ccc(NC(=O)C(NC(=O)OCc2ccccc2)C(c2ccccc2)c2ccccc2)cc1 (stereo not shown) | 8.7 ± 1 µM |
| CC(C)C(NC(=O)OCc1ccccc1)C(=O)Nc1ccc(C2CC2N)cc1 (stereo not shown) | 70.4 ± 9.8 µM |
| NC1CC1c1ccc(NC(=O)c2cccc3ccccc23)cc1 (stereo not shown) | 14.4 ± 2.2 µM |
| NC1CC1c1ccc(NC(=O)Cc2ccc3ccccc3c2)cc1 (stereo not shown) | 16.4 ± 3.3 µM |
| NC1CC1c1ccc(NC(=O)Cc2cccc3ccccc23)cc1 (stereo not shown) | 17.8 ± 2 µM |

Single results of other studies
| SMILES | tested on | read-out | technique | matrix | setting | endpoint | result |
| --- | --- | --- | --- | --- | --- | --- | --- |
| c1cc(-c2ccc3ncnc(Nc4ncco4)c3c2)cc(N2CCOCC2)c1 | – | – | – | human liver microsomes | – | intrinsic clearance | 51 µL/min/mg protein |
| CC(C)C[C@@H]1NC(=O)[C@H](CCCCN)NC(=O)[C@H]([C@@H](C)O)NC(=O)[C@H](CC(C)C)NC(=O)[C@H](CC(C)C)NC(=O)[C@H](CCCNC(=N)N)NC(=O)[C@H](C)NC1=O | Epidermal growth factor receptor, extracellular domain (EGFR, Homo sapiens, UniProt P00533) | binding | SPR | extracellular domain | without EGF bound | Kd | 1 µM |
| Cn1ccc2c(N3CCN(CCCCOc4ccc5c(c4)NC(=O)CC5)CC3)cccc21 | D(2) dopamine receptor, D2 long isoform (DRD2, Homo sapiens, UniProt P14416) | – | – | – | – | Ki | 0.0112 µM |

A few entries again (sample 1):
| organism | technique | strain | MIC [µM] |
| --- | --- | --- | --- |
| Escherichia coli | – | CCARM 1238, resistant | 4 (≈ 5.75 µg/mL) |
